# Values quoted from earlier work that unrelated publications cite.
# Compare with care: the assays were run in different laboratories.
Compound,target,test,test system,setting,how to read,measurement,value
CCCCCCCCCCCCCC(=O)O[C@@H]1[C@@H](C)[C@@]2(O)[C@@H](C=C(CO)C[C@]3(O)C(=O)C(C)=C[C@@H]23)[C@@H]2C(C)(C)[C@]12OC(C)=O,phorbol ester binding site,,,reference compound,,Hill coefficient,1
O=S(=O)(O)C(F)(F)C(F)(F)C(F)(F)C(F)(F)C(F)(F)C(F)(F)F,PPARα (human),"reporter gene, agonist, Gal4 transactivation",human hepatocarcinoma cell line,,relative to: positive control,efficacy,59%
CC(=O)NC[C@H]1CN(c2ccc(N3CCOCC3)c(F)c2)C(=O)O1,mitochondrial ribosome,inhibitor,,,,IC50,16000 nM
CC1(C)NC(=O)C(Cc2ccc(O)cc2)NC(=O)CNC(=O)C(Cc2ccc3ccccc3c2)NC(=O)C(CCCN=C(N)N)NC1=O (stereo not shown),human CXCR4 H113A mutant,,,,,EC50,100000 nM
O=c1nc([C@@H]2CCCN2)[nH]c2c1oc1ccc(Cl)cc12,CDC7,inhibitor,,,,IC50,3.4 nM
CN(C)C(=N)N=C(N)N,OCT1 human,,human,"dose not given, with: verapamil",,glucose-lowering effect,decreased
CC=O,ADH1 H48S Saccharomyces cerevisiae,"enzyme activity, substrate",,"pH 7.3, 30 °C",,kcat/Km,730000 M⁻¹ s⁻¹
COc1ccc2c(c1)[nH]c1c(C)nccc12,human CDK9/cyclin T,"kinase activity, inhibitor",,,,IC50,720 nM
N#CC(=Cc1ccc(O)cc1)C(=O)O,monocarboxylate transporter (human),"monocarboxylate transport, inhibitor",human red blood cells,,,Ki,60000 nM
CC(C)[C@H](NC(=O)[C@H](CCCNC(=N)N)NC(=O)N[C@@H](Cc1ccccc1)C(=O)O)C(=O)N[C@H](C=O)CCCNC(=N)N,CTSB,,,,,IC50,900 nM
CC(C)(O/N=C(\C(=O)N[C@@H]1C(=O)N2C(C(=O)[O-])=C(C[N+]3(CCNC(=O)c4ccc(O)c(O)c4Cl)CCCC3)CS[C@H]12)c1csc(N)n1)C(=O)O,AmpC beta-lactamase,substrate,,,,kcat,0.08 s⁻¹
CCCc1cc(F)ccc1C(O)c1ncc[nH]1 (stereo not shown),PAR2 (F2RL1),antagonist,,,,IC50,344 nM
O=C(O)C(F)(F)C(F)(F)C(F)(F)C(F)(F)C(F)(F)C(F)(F)F,PPARα (human),"reporter gene, agonist, Gal4 transactivation",human hepatocarcinoma cell line,,relative to: positive control,efficacy,> 90%

# Repeated from above:
Compound,target,test,test system,setting,how to read,measurement,value
CN(C)C(=N)N=C(N)N,OCT1 human,,human,"dose not given, with: verapamil",,glucose-lowering effect,decreased
O=C(O)C(F)(F)C(F)(F)C(F)(F)C(F)(F)C(F)(F)C(F)(F)F,PPARα (human),"reporter gene, agonist, Gal4 transactivation",human hepatocarcinoma cell line,,relative to: positive control,efficacy,> 90%
